Results pooled from the literature.
Each numbered part is a random draw from the data of one study; scales do not carry over between parts.

Series 1 — technique: RNA Bind-n-Seq; molecule type: RNA; matrix: in vitro; concentration: 200 nM; setting: whole 134-nt RNA, ends assumed; added: 150 mM KCl; relative to: input library; direction: higher = stronger binding
Target: Fragile X messenger ribonucleoprotein 1, C-terminal low-complexity region (Fmr1, Mus musculus, UniProt P35922)
All sequences stand within: GGGAGUUCUACAGUCCGACGAUC … UGGAAUUCUCGGGUGUCAAGG
Sequence | log2 enrichment
UCCUGUGCUACACAUCGUAUGUACCGAAUCGGGGUUUGGGGAAAAAGGGGUUUUUGGGGAAAGUAUUAUGUUACGCCGUUCGGAUCUGCA | 0.76
UGGCCCUGGUGGCAUGCGGGGAGGAAGCGGUGGCCUCAUGGAUCGUGGUGGUCCCGGUGGAAUGUUCAGAGGUGGCCGUGGUGGAGACAG | -0.194
CUGUGCUACACAUCGUAUGUACCGAAUCGUGUGUGUGUGUGUGUGUGUGUGUGUGUGUGUGUAAAGUAUUAUGUUACGCCGUUCGGAUCU | 0.749
CAAGUCCUGUGCUACACAUCGUAUGUACCGAAUCGGAAAGGAAAAAGGUUUUUGGAAAGUAUUAUGUUACGCCGUUCGGAUCUGCACUUC | -0.976
CAAGUCCUGUGCUACACAUCGUAUGUACCGAAUCGGGAGGGAGGGUUUUUUUGGGAAAGUAUUAUGUUACGCCGUUCGGAUCUGCACUUC | 0.839
CCUGUGCUACACAUCGUAUGUACCGAAUCGGUUUUUUUGGGUUUUUUUGGUUUUUUUGGGAAAGUAUUAUGUUACGCCGUUCGGAUCUGC | -0.544
UCCUGUGCUACACAUCGUAUGUACCGAAUCGGGGAAAAAGGGGAAAAAGGGGUUUGGGGAAAGUAUUAUGUUACGCCGUUCGGAUCUGCA | 0.618
UGGCCCUGGUGGCAUGCGGGGAGGAAGAGGUGGCCUCGUGGAUCGUGGUGGUCCCGGUGGAAUGUUCAGAGGUGGCCGUGGUGGAGACAG | 0.0353
UCCUGUGCUACACAUCGUAUGUACCGAAUCGGGGUGGGGUUUUUUUGGGGUUUUUGGGGAAAGUAUUAUGUUACGCCGUUCGGAUCUGCA | 0.997
UGUGGCCGCAGGACGAGUACAUCGUGGAGUACUCACUAGAGUAUGGCUUCCUUCGCCUGUCGCAGGCCACCCGCCAGCGCCUGAGCAUCC | -0.0212
UGGGAGGUGGAUUUUGUUUAUUUUGUUAGCUCAUUUCCAGGGGUGGGAAUUUUUUUUUAAUAUGUGUCAUGAAUAAAGUUGUUUUUGAAA | 0.292
CAGCAGCAGAGUGAGUGGAUUUUAUUUUUCGUUAUUGUUGGUGGUUUAAAAAAUUCCCCCCAUGUAAUUAUUGUGAACACCUUGCUUUGU | -0.13
GAACUUUAGAGGAGGAUCUGAUGGAUAUGGCAGUGGACGUGGAUUUGGGGAUGGCUAUAAUGGGUAUGGAGGAGGACCUGGAGGUGGCAA | 0.324
GUCCUGUGCUACACAUCGUAUGUACCGAAUCGGAAAAAGGGAAAAAGGGGAAAAAGGGGAAAGUAUUAUGUUACGCCGUUCGGAUCUGCA | 0.0383

Series 2 — technique: RNA Bind-n-Seq; molecule type: RNA; matrix: in vitro; concentration: 365 nM; relative to: no-protein control; direction: higher = stronger binding
Target: RNA binding protein fox-1 homolog 2, RRM domain, GST-SBP tag (RBFOX2, Homo sapiens, UniProt O43251-10, residues 100-194)
Setting: natural RNA segment, single round, ends assumed
All sequences stand within: GGGAGUUCUACAGUCCGACGAUC … UGGAAUUCUCGGGUGCCAA
Target sequence (chain): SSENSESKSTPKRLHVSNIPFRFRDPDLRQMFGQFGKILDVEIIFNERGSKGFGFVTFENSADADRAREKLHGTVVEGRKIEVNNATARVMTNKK
Sequence | RBNS enrichment (R)
CCCCACACCCCGUCUCUCACCAAGAGUUACUGAUUUUGCUCAUCCACUUCCCUACACAUCUAUGGGUAUCACACCCAAGACUACCCACCAAGCUCAUACAGGGAACCACA | 0.684
CCCACUGGCCAGUCCUAGAGCUCCUGUCCCUACCCACUCUUUGCUACAAUAAAUGCUGAAUGAAUCCGCUCUGAGCCUGGUAUGUUUGGGGGACUGGGAAAAGUAGGGGA | 0.902
AUAUGAAAUGCUAUGUAAAGUUUUCUAUGUAAAAAAAUAUUAUGUAUAAUACUGUUAAAUACCCCAUGCUUUGAUCAGGUGGAAAAAAUCAAUAAAGUUUUAAAAAGUAA | 0.988
UGUAGGUCGGUGCAGGAUCCCCAGAAGUGCAGGUCUCUCCAGUCUGCAGUUUGCCAACUUGUCUGCGUGCCAGCCAGCCACAGGGUGAUUCCAGAAGAGAGCUAUUUAAA | 1.12
AAAAUCUCAAGUGAAAAAGAAUUAACCUGUUAAAUCAGAAUGGUUCUCUUUGACCCGUUCUGGUCUAUUGUGUAAAUAUUUAUUUAGACUAUUUUGAUAAUACAUAUUAU | 0.343
GAACUCUGUGACUGCUUUGCCCACCAGUGUCAUCAUGUCAUUUGCCCUAAACACCUUGUAGUUGCUGAAGACAACUCAAGAGCAUCUAAGGGGAGUAUCUCUCACGACCC | 0.365
CCAACCUGACCUAACCUAGGAGGGCUCUGAGCCAACCUUGCUCUUGGGGAAGGGGACAGAUUAUGAAAUUUCAUGGAUGAAUUUUCCAGACCUAUAUCUGGAGUGAGAGG | 0.242
GCCCAUUCCAGCUGGAGUCGUGGGGCUGGGCACAGGGGAAUUUUUCCAGAGCUGAGCCUGACGUCUGCUCUGAAGAAUGCUUAGAAGGUUCCCAGACACCAGAGCCAGAU | 1.67
AAUAUCUUUUCCUAAAGAAGAUAAACCUAAGACUCAUUCCAGGUAGCUCAGUGCCAACUAAAACAAAGCACAAAGUUCUCAGAGCUCUUGAGGAAAUGGUUGUCUCCCUG | 0.249
AGAACUGAAAUUAGUUGGAAUUGUAAGCAGUGAAUAGAUGUGUUGUUAGAAUGAUUCCAUCACUUAUACAUUGUUUAAAAUGCUAAUAAAGUAACUUGCUUUGUAAGAAU | 1.56
GGGAUUAAAGGCAUGCAUCACCACAGCCUACAGCAAUGUGUGUCUUAUAUACUAUGAGAUAGUGAGGGAGUAUAGAAGUGAAAACCAGGUGUCUGUUCUUGCCCUUAAUA | 0.639
AACAGCAGACUCAGCUCUGACAUUCUGAUUCGAAUGACACUGUUCAGGAAUCGGAAUCCUGUCGAUUAGACUGGACAGCUUGUGGCAAGUGAAUUUGCCUGUAACAAGCC | 0.237

Series 3 — technique: RNAcompete; molecule type: RNA; matrix: in vitro; concentration: 20 nM; setting: 7-mer, probes averaged, single round; relative to: mean of 7-mers; direction: higher = stronger binding
Target: PABPC1L2, full length, GST fusion (mouse, UniProt A0ABA7IW68)
Construct (chain): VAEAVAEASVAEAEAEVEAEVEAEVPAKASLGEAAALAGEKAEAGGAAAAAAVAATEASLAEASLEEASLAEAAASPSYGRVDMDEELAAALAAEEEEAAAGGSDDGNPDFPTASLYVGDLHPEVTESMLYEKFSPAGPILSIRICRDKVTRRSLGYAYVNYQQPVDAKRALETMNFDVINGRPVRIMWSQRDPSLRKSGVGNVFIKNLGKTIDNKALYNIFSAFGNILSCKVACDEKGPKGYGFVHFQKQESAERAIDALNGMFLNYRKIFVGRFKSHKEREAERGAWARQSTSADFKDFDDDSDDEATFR
Sequence | 7-mer Z-score
GAAGAAA | 1.36
GGUAUAC | -0.00652
UGAUAGC | -0.229
GGCACUC | 0.0551
UUGACAU | -0.184
GGUAGCA | 0.131
CGUACCG | -0.233
AUGGAGG | 0.166
CACGAAG | -0.0899
GUCAUCC | -0.378
AGAGCUC | -0.38
UUCUUUA | -0.0301
GCGGUUU | -0.199
GUUCAUU | -0.226
CGGCUUC | -0.142
UUCGUGC | -0.338
AUCAAUU | -0.0518
GCUUAGU | -0.219
AAGACCC | 0.0895
AAUUGAG | 0.376
UACCAGG | -0.184
UGCAACA | 0.017
CUAUCAU | -0.173
ACUCAGA | 0.046
CGAACCC | -0.179

Series 4 — technique: RNA Bind-n-Seq; molecule type: RNA; matrix: in vitro; concentration: not given; relative to: input RNA pool; direction: higher = stronger binding
Target: RING finger protein unkempt homolog, zinc fingers 1-6, GST-SBP tag (UNK, Homo sapiens, UniProt Q9C0B0, residues 30-357)
UniProt Q9C0B0, sequence (30-357, looked up): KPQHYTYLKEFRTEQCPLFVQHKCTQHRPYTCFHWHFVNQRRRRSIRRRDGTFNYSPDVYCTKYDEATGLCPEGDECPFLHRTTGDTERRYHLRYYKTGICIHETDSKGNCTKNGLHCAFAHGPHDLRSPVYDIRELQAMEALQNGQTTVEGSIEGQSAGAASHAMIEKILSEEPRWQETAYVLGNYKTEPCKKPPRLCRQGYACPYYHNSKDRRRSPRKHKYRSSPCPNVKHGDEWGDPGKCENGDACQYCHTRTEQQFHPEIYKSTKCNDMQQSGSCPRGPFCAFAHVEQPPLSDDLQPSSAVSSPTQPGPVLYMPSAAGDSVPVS
Setting: RNA with constant flanks, human and mouse sites, ends assumed
All sequences stand within: GGGAGUUCUACAGUCCGACGAUC … CAACAGAGGAUUGAGCAUCA
Sequence | bound/input enrichment
GAGGUUACCCAUUUUUGUUUGCCUCAACUUCUUCCGUUACUUAAACAUACUACGUCAUACAUUCACGAAGUUUUUGAAUUUUAUGAAGAAAUUUUGACUUGUCGCUAUCCGUACUCCUGU | 0.343 ratio
GGUAGACCAGAAACCACAAAUUGACUUUUUUUCUUAGAAAAUAUUUCUAUUUGCGGUAAAUAUAGUAAUAUGUAAAUAAUGUACAUCUGUUGAUUUCUGGAGUGUCUGUUAUUCAAUGAU | 54.8 ratio
UUUCAGGAUUCUUCUGGCACCAAGGCGAACUCUUCUUGGUACUUCUGACAAUACAGAUCUUUAGGACAAAUUUACCCGCUGAAUGCUUUGGGGCAGGAGGAAAGUAAAACCUUGGAAGCA | 0.237 ratio
ACAGAUAAAGACAAUGGAGGGAUGCUUGUAUGGUCUCCAUAUCACAGUAUCCCAGAUGCCAAAUUGGAUGAAUACAUUGCAAUUGCAAAGGAAAAGCAUGGCUACAAUGUGGAACAGGCA | 0.179 ratio
CCUGCUCCCAAAUCAUGGGCCAGUAACAAGCAAGGUGGGCAAGGAGAUGGAAUCCAAGUGAAUAGUCAAUUUCAGCAGGAAUUUCCCAGUCUGCAGGCAGCUGGAGAUCAGGAAAAAAAA | 0.151 ratio
CCCAAGUUCCUCAUUUUACAGCUGGGGAAACUAAGGCCUAGAGAGAGGCAAGUGAUAUUUGUUUCAUGGCAGGGCUGGGCUGAGAUCCUGCUUUUCUGGGUCUGUCUUUUUGCUCUUUUG | 0.17 ratio
AUCUCUUUUGGUUUUGAUAAUCUGAAGUGUUUUUUUCUCGUUUUGGCCUUCCAAACUGCAUUUGGUUAGGUGAAUUAAGAAAAAUAUUGCCAUCAAGAAUUACUUGUGUUUUCACAGAGA | 0.172 ratio
AUGCAGUGGCUCGGGAGGCACACAGAUCCUGAAGGAAUCAUAAAAUCCAGCAAGCUCUCCCUUCAGUUUGUUUCCUCCUACACAUCUGAAGCGGAGAUCACCCCGUCUUCCAUGCCUGUG | 0.227 ratio
ACAGCUCUCAUUCAAAGGAACUAGAAGCCUCUCCCUCAGUGGUAGGGAGACAGCCAGGAGCGGUUUUCUGGGAACUGUGGGAUGUGCCCUUGGGGGCCCGAGAAAACAGAAGGAAGAUGC | 0.375 ratio
AUUUUAGCUCUGAUCUCACUCUUCAGUAUUCCUGUUAUAUAUGAACGGCAUCAGGCGCAGAUAGAUCAUUAUCUAGGACUUGCAAACAAGAGCGUUAAGGAUGCCAUGGCCAAAAUCCAA | 0.4 ratio
GAUAAAGAUCCCAACAAGAAGAUGAAACGAAACUUAAGGAAAAUUCUAGAUAGUAAAGCAAUAGACCUUAUGAAUGCACUAAUGAGAUUAAAUCAGAUCAGGCCCGGGCUUCAGUAUAAG | 2.08 ratio

Repeated from above (series 3):
Sequence | 7-mer Z-score
CUAUCAU | -0.173
UUCUUUA | -0.0301
GUCAUCC | -0.378
UUGACAU | -0.184
GGUAGCA | 0.131
GUUCAUU | -0.226
AAUUGAG | 0.376
AUGGAGG | 0.166
